Measurements gathered from unrelated publications.
Each line is one published result; not all experiments were run side by side. Numbers after ± are the reported error.
USP13 ZnF-UBD domain: Ubiquitin carboxyl-terminal hydrolase 13, ZnF-UBD domain (USP13, Homo sapiens, UniProt Q92995)
HDAC6: Protein deacetylase HDAC6 (HDAC6, Homo sapiens, UniProt Q9UBN7)
SMARCA2: SWI/SNF-related matrix-associated actin-dependent regulator of chromatin subfamily A member 2 (SMARCA2, Homo sapiens, UniProt P51531)
HDAC6 ZnF-UBD domain: Protein deacetylase HDAC6, ZnF-UBD domain (HDAC6, Homo sapiens, UniProt Q9UBN7)

`O=C(O)CCc1ccccc1` gave a Kd of over 1000 µM (USP13 ZnF-UBD domain).
`O=C(COc1ccc(C2CCC(=O)NC2=O)cc1)NCCCCCCN1CCc2c(c3ccccc3n2Cc2ccc(C(=O)NO)cc2)C1` (stereo not shown) has a DC50 of 0.0013 ± 0.0005 µM (HDAC6; degrader, western blot; MM1.S cells; 24 h).
For `O=C(O)CCn1ccccc1=O`, the Kd was over 1000 µM (USP13 ZnF-UBD domain).
For `Cc1ccc(Nc2cc(O)nc(O)n2)cc1Cl`, the Ki was 0.64 µM (DNA polymerase III PolC-type (Bacillus subtilis, UniProt P13267); inhibitor).
For `CN(CCCCCCNC(=O)CNc1cccc2c1C(=O)N(C1CCC(=O)NC1=O)C2=O)Cc1cn(Cc2ccc(C(=O)NO)cc2)c2ccccc12` (stereo not shown), the DC50 was 0.016 ± 0.0039 µM (HDAC6; degrader, western blot; MM1.S cells; 24 h).
`O=C(COc1cccc2c1C(=O)N(C1CCC(=O)NC1=O)C2=O)NCCCCCC(=O)N1CCN(c2ccc(Nc3nc(NC4CCCCC4)c4[nH]cnc4n3)cc2)CC1` (stereo not shown) has a DC50 of 0.0088 µM (Aurora kinase A (AURKA, Homo sapiens, UniProt O14965); degrader, western blot; IMR-32).
`Nc1nnc(-c2ccccc2O)cc1N1CCN(Cc2ccc(OCCOCCNc3cccc4c3C(=O)N(C3CCC(=O)NC3=O)C4=O)c(F)c2)CC1` (stereo not shown) gave a DC50 of 0.0928 µM (SMARCA2; degrader, immunoblot; SMARCA4 wild-type cells; 96 h, median of twelve cell lines).
For `O=C1Nc2c(ccc(Cl)c2Cl)C1=NO`, the EC50 was over 83 µM (CALM1/Kcnn2 (Homo sapiens, UniProt P0DP23+P70604, L292A/S288A); ion current, activator, whole-cell patch clamp; S288A-L292A double mutant).
The EC50 of `CC(C)C[C@H](NC(=O)[C@H](Cc1ccccc1)NC(=O)[C@H](Cc1ccc(O)cc1)NC(=O)CNC(=O)[C@H](CCCNC(=N)N)NC(=O)[C@H](CO)NC(=O)[C@H](CCC(N)=O)NC(=O)[C@H](CO)NC(=O)[C@H](C)NC(=O)[C@H](Cc1ccccc1)NC(=O)[C@@H]1CCCN1C(=O)[C@H](CO)NC(=O)[C@H](CCC(N)=O)NC(=O)[C@H](Cc1ccccc1)NC(=O)[C@H](CCC(=O)O)NC(=O)[C@H](CCC(=O)O)NC(=O)[C@H](CC(=O)O)NC(=O)[C@@H](NC(=O)[C@H](CCCNC(=N)N)NC(=O)[C@@H](N)Cc1ccccc1)C(C)C)C(=O)N[C@@H](Cc1ccccc1)C(=O)N[C@@H](CCCNC(=N)N)C(=O)N1CCC[C@H]1C(=O)N[C@@H](CCCNC(=N)N)C(=O)N[C@@H](CC(N)=O)C(N)=O` is reported as 0.000575 µM (Neuromedin-U receptor 2 (Mus musculus, UniProt Q8BZ39); Gq signalling, agonist, IP-1 accumulation; from mean pEC50).
For `Nc1nnc(-c2ccccc2O)cc1N1CCN(Cc2ccc(N3CCN(CCOc4cccc5c4C(=O)N(C4CCC(=O)NC4=O)C5=O)CC3)c(F)c2)CC1` (stereo not shown), the DC50 was 0.12 µM (SMARCA2; degrader, immunoblot; H1792 SMARCA4 wild-type; 96 h).
`CC[C@@H]1[C@H](F)C(=O)N[C@@H]1COc1nccc2cc(C(N)=O)c(OC)cc12` has an IC50 of 0.91 µM (STK16 (Homo sapiens, UniProt O75716); ATP-site probe binding, ActivX profiling; THP-1 cell lysate; Lys2 site).
`CC[C@H](C)[C@H](NC(=O)[C@H](CCCNC(=N)N)NC(=O)[C@H](CCCCN)NC(=O)[C@@H]1CCCN1C(=O)[C@@H](N)CO)C(=O)N[C@@H](C)C(=O)O` gave a Kd of over 1000 µM (N-terminal Xaa-Pro-Lys N-methyltransferase 1 (Homo sapiens, UniProt Q9BV86, D180K); ITC; 25 °C, added: peptide).
`CCCCC[C@H](O)/C=C/[C@H]1[C@H](O)CC(=O)[C@@H]1C/C=C\CCCC(=O)O` has an EC50 of 0.00272 µM (PTGER1 (Homo sapiens, UniProt P34995, R63A); IP1 accumulation, agonist; AD293; EP1 R63A mutant).
With `O=C(O)CCC1=Nc2cccc3cccc(c23)N1` the Kd was over 1000 µM (HDAC6 ZnF-UBD domain).
`Cc1ncsc1-c1ccc([C@H](C)NC(=O)[C@@H]2C[C@@H](O)CN2C(=O)[C@@H](NC(=O)CN2CCN(c3cc(-c4ccccc4O)nnc3N)CC2)C(C)(C)C)cc1` has a DC50 of 0.00174 µM (SMARCA2; degrader, immunofluorescence; SW1573).
`O=C(O)Cn1cnc2ccccc2c1=O` gave a Kd of over 1000 µM (HDAC6 ZnF-UBD domain).
The Kb of `CCN1/C(=C/C(C)=O)Sc2ccc(F)cc21` is reported as 1.1 µM (ADRA2B (Homo sapiens, UniProt P18089); competitive antagonist, TGFα shedding).
`O=C(O)Cn1ccc2ccccc2c1=O` has a Kd of 698 µM (HDAC6 ZnF-UBD domain).
For `CC(C)C[C@H](NC(=O)[C@H](Cc1ccccc1)NC(=O)[C@@H](N)Cc1ccc(O)cc1)C(=O)N[C@@H](Cc1ccccc1)C(=O)N[C@@H](CCCNC(=N)N)C(=O)N1CCC[C@H]1C(=O)N[C@@H](CCCNC(=N)N)C(=O)N[C@@H](CC(N)=O)C(N)=O`, the EC50 was 0.0017 µM (NMUR1 (Homo sapiens, UniProt Q9HB89); β-arrestin recruitment, agonist, PathHunter luminescence; CHO-K1; 90 min, 37 °C).
`O=C(O)CCc1ccno1` has a Kd of over 1000 µM (USP13 ZnF-UBD domain).
With `CC(=O)N[C@H]1[C@H](O[C@H]2[C@H](O)[C@@H](NC(C)=O)C(O)O[C@@H]2CO)O[C@H](CO)[C@@H](O[C@@H]2O[C@H](CO)[C@@H](O)[C@H](O)[C@H]2NC(C)=O)[C@@H]1O` (stereo partly shown) the Kd was 16.3 ± 2 µM (Lysozyme C (LYZ, Gallus gallus, UniProt P00698); surface sampling native MS).
With `O=C(O)CCn1c(=O)oc2ccccc21` the Kd was over 1000 µM (HDAC6 ZnF-UBD domain).
The DC50 of `Cc1ncsc1-c1ccc(CNC(=O)[C@@H]2C[C@@H](O)CN2C(=O)[C@@H](NC(=O)C2(F)CC2)C(C)(C)C)c(OCCOc2ccc(CN3CCN(c4cc(-c5ccccc5O)nnc4N)CC3)cc2)c1` is reported as 0.013 µM (SMARCA2; degrader, capillary electrophoresis; SK-MEL-5; 18 h).
`N[C@H](CNC(=O)c1cc(Br)c(-c2ccccc2F)s1)C(=O)O` gave an EC50 of 0.004 µM (Glutamate NMDA receptor; Grin1/Grin2c (Rattus norvegicus, UniProt P35439+Q00961, S688A); receptor activation, positive modulator; rat; added: glutamate 300 µM).
With `Cc1ccc(C(=O)O)cc1S(=O)(=O)Nc1cccc(C(=O)CCC(=O)O)c1` the Kd was over 1000 µM (HDAC6 ZnF-UBD domain).
